Results of several laboratories.
Every numbered part comes from another study and shows a few of its results, in no order. Changes are numbered by the printed parent chain.

Series 1
Target: CCNB2, cyclin fold, Cln2 fusion (human)
Method: yeast growth competition, sequencing
Sample: yeast
Setting: weak parent motif
Reference: not given
Direction: higher = stronger binding
Starting sequence: SCAPER docking peptide (human); SNARRSLNFGGST
| Change | normalised enrichment score |
| --- | --- |
| SNARRSLNFGGHT [S12H] | -0.0199 |
| SNARRSLNFGIST [G11I] | 0.0407 |
| SNARRSLCFGGST [N8C] | -0.381 |
| SNARRSLLFGGST [N8L] | 0.139 |
| SVARRSLNFGGST [N2V] | 0.305 |
| SNAFRSLNFGGST [R4F] | -0.338 |
| SNAPRSLNFGGST [R4P] | -0.288 |
| SNARRSLNKGGST [F9K] | 0.293 |
| SNARRCLNFGGST [S6C] | 0.00534 |
| SNARRSLSFGGST [N8S] | 0.367 |
| SNARRSLNPGGST [F9P] | 0.0742 |
| SNARRSLKFGGST [N8K] | 0.607 |
| SGARRSLNFGGST [N2G] | 0.246 |
| SNARRSLNFGGSM [T13M] | 0.0602 |
| SNARRSLNCGGST [F9C] | -0.0902 |

Series 2
Target: RING finger protein unkempt homolog, zinc fingers 1-6, GST-SBP tag (UNK, Homo sapiens, UniProt Q9C0B0, residues 30-357)
Method: RNA Bind-n-Seq
Form: RNA
Sample: in vitro
Concentration: not given
Setting: RNA with constant flanks, human and mouse sites, ends assumed
Reference: input RNA pool
Direction: higher = stronger binding
Shared flanks, not repeated: GGGAGUUCUACAGUCCGACGAUC … CAACAGAGGAUUGAGCAUCA
Residues (chain): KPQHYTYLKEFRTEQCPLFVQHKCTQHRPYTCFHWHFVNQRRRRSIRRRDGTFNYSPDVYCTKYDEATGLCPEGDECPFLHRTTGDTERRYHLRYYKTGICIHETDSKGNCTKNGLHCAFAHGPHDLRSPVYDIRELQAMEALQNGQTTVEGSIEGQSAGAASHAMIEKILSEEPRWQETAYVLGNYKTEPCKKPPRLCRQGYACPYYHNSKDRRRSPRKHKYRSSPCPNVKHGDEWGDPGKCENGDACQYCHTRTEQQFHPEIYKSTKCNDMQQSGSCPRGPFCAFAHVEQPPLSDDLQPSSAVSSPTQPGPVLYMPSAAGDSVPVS
| Sequence | bound/input enrichment |
| --- | --- |
| CUCUAUACUUGCUUCCAAUCCAUACAAGCCCAAAAAAGCUCAGAGUAUGAGAGAAUUGAAAUCCCAAUCCAUAUUGUACCUCAUAUCACUAUUGGGAAAGUAUGCCUUGAAUCUGCAGUA | 0.171 ratio |
| CGAAUGUUUGCUUACUUCCGACGCAAUGCAGCCACGUGGAAGAAUGCAGUGCGUCAUAAUCUUAGUCUCCACAAGUGUUUUGUGCGAGUAGAGAACGUUAAAGGGGCAGUAUGGACAGUG | 1.19 ratio |
| CCCUUGCCCAGAAGCAGCUGAACAAUUCCUAACCCAUUUCAUCUCGGUUCUGUAUGGGUUUUUCCCGUGCAUGGAAGGGAGGCAGCUCAGGGACCACCAUUGUGGAGCCUUUGAGACCUC | 0.263 ratio |
| GCCCCAGAGCAGAGGAAAAUCCAAAGUGGAGAGAGGGGAAGAAAGAGACCAGUGAGUCAUCCGUCCAGAAGGCGGGGAGAGCAGCAGCGGCCCAAGCAGGAGCUGCAGCGAGCCGGGUAC | 0.311 ratio |
| GACUUGGCCACUGUGAAUACCAAUCCAUUUGAUGAACCUGAUGUAACAGAAUUAAAUCCAUUUGGAGAUCCUGACUCAGAAGGUGUACAGACUCCACAGUAUUUGAACCCAUUUGAUGAA | 0.24 ratio |
| AGCAAAGACGCAAAGGUUCCUUCUCCCCCUCCUGGACAUAAAUGGAAGGAAGUCCGACAUGAUAACAAGGUUACUUGGCUGGUCUCCUGGACAGAGAAUAUCCAAGGUUCUAUCAAAUAU | 0.199 ratio |
| AUAGAUGCAGUGAAGUUGUUAAAUAACGAAAAUGUUGCCCCUUUUCAUUCAGAGCUAACUGAAAAGUCAUCACCAGAAGAAACACUAAAUGAAUUAACUGGAAGACUAUCAAAUAAUCAU | 0.231 ratio |
| CACAGCCUGAACAUCGUCCACCGUGACAUCAAGCCAGAGAAUCUGCUGGUGUAUGAGCACCAGGAUGGCAGUAAGUCACUCAAGUUGGGUGACUUUGGCCUGGCCACAAUUGUCGACGGC | 0.082 ratio |
| GCAAGUAACAAUCGCUUAUUCCAGCUCGUAAUGAAGGGCCUACUUUAUGAAUGCUGCGUAGAAUUUUGUCAGAGUAAAGCAACUGGUGAAGAAAUUACAGAAAGUGAAGUCCUUCUUGGC | 0.271 ratio |
| CAUAAUUAUGGUGCUCGUCCUCCUCCAACACCUCCAGCAUCCCCUCCUCCAUCAGGUCUCAUUAGCAAAAACGAAGUAGGCAUAUUUACCACUCCUAAUUUUGAUGAAACUUCCAGUGCU | 2.59 ratio |
| GCAGAUGAAGCAGAGAAUCUUAAAUUGUGGAACUCUUUCUGUCAUUCUGAGGACCCCUACAACCUUUUAAAUUUUAAGGCUCCUUUUCAACCGUCAGGGAAGAAUUGGAAAGGCCGUCAG | 0.264 ratio |

Series 3
Target: RNA binding protein fox-1 homolog 2, RRM domain, GST-SBP tag (RBFOX2, Homo sapiens, UniProt O43251-10, residues 100-194)
Method: RNA Bind-n-Seq
Form: RNA
Sample: in vitro
Concentration: 365 nM
Setting: natural RNA segment, single round, ends assumed
Reference: no-protein control
Direction: higher = stronger binding
Shared flanks, not repeated: GGGAGUUCUACAGUCCGACGAUC … UGGAAUUCUCGGGUGCCAA
Residues (chain): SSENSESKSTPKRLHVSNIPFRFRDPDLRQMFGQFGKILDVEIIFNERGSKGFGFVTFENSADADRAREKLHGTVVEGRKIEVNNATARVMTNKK
| Sequence | RBNS enrichment (R) |
| --- | --- |
| CAGUGCUGUUUGGAGACUGUGAGAGGGAGUGCGUGUGUUGACACAUGUGGAUCAGGCCCAGGAAGGGCACAGGGGCUGAGCACUACAGAAGUCACAUGGGUUCUCAGGGU | 0.916 |
| AAACUGGGCGAGACAGAGCAUGUUUGCAGUCCUAGCAUUCAGCAGGUAGAGACAGGAAGAUGAGAAGUGCAAAGUAGUCUCGGCUAGGUAGUGUCAGGACUAUCCUGUGC | 9.02 |
| UCAUUAUUUCUAUUACCAUGGAUAAAAAAGUCAGCUGCUACGUUGAUAUCCCUUCUAUGAGCACAUUCUUAGCAGAAGAAAACAAUCCAACUACCAACACCCGACUCUAU | 0.593 |
| UCGACACCAGGAGCUGUUGGGAGAAAGCAAUACGUUUGUGCAGAAUCUCUAUGUAUAUUCUAUUUUAUUAAAUUAAUUGAAUCUAGUAUAUGCUGGAUGUACGACAUUUU | 0.613 |
| UUAUGAAGUAUGGAAAAGAAGCCCUUACAUAUUCCAGAUGUGUGCAGCAGGGGGCACUGUCCCAGCCCUCUCUGCCCCAGCCAGGCACAGUGGCCUCUAGAGGGUGGUCC | 0.412 |
| UGGUCCUGGAACUCUUCACCAGGGAGGGAGCCCUGCGGGGGCCGCAGCUUUGUGGAGGGAGCCGCCGUGCUUCUGUCACCUGCUCCCUUUCUUGCGUCUCCCUGUGAUGG | 0.308 |
| ACCCUCUUUAUGAAGUGAAUUACCAAUGCUUUGAAUAAUGUUCACUUAUACAUUCCUGUACAGAAAUUACGAUUUUGUGAUUACAGUAAUAAAAUGAUAUUCCUUGUGAA | 0.585 |
| ACAAUAGGCCUUUUCUUUAUCAUUCAUACGACAUUUCUGGUUUAGGUGUAUGUAGUUGGGCCAUGUUACUUGUCCAGAGGAAGAGACUAAAGAUAUAAGAAUAAUUUUUU | 0.586 |
| ACCCCCAUCCCACUGCUCUCUCUGAGCUGCAGCUGUAUGUAUAGCAGAUUAGGGGCUCCCUGGUUAGAGGGUUGUAAGGUACAGGGUGCUGUCCAGCCUCUGAGUACCAU | 0.205 |
| CCCUGCCUAGAGGAGCACCAUCUACAGUUGUGCCAUUCCCCAGCCACUGCCUUCAUGCUGCCCCCGCCGGACUGGCAGAGCCAGGGGUCAGCCACCUGCCUUUGAGUCAU | 0.472 |
| AUCUGGCGCUUUUUCUAUCGUCUCUGCUAUGUCACUGAAUUAACCACUGUACGUGGCAGAGGUGGCAGGCCCCUCAGGGUCCUUAUUUUUCAGGCAUGGGGUCAAAGCUA | 0.247 |
| CUUAGGGCAAGAGCCAGGUAUAGUCUCCCUUCCCAGAAUUUGUAACUGAGAAGAUCUUUUCUUUUUCCUUUUUUUGGUAACAAGACUUAGAAGGAGGGCCCAGGCACUUU | 0.324 |

Series 4
Target: ATF3, bZIP domain (human)
Method: DHFR protein complementation
Sample: yeast
Setting: single substitutions, most at no-binding floor
Reference: wild-type JUN-FOS pair
Direction: higher = stronger binding
Starting sequence: JUN, bZIP domain (human); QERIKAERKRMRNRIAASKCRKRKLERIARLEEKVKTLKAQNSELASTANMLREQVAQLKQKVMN; partner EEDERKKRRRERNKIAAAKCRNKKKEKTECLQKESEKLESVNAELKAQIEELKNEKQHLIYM
| Change | binding fitness [natural log] |
| --- | --- |
| K36Q | -0.137 |
| R53L | -0.362 |
| K39I | -0.403 |
| Q58R | -0.248 |
| K34G | -0.473 |
| Q41I | -0.111 |
| L38W | -0.95 |
| A40H | -0.18 |
| A49D | -1.33 |
| R53I | -0.348 |
| T48Y | -0.0653 |
| T37N | -0.0207 |
| L38A | -0.672 |
| S43G | -0.127 |
| A29I | -0.256 |
| M51H | -0.296 |
| M51A | -0.0387 |
| Q55L | -0.449 |
| E33G | -0.348 |
| E32T | -0.245 |

Series 5
Target: Centromere-binding protein 1, full length, His-tagged (CBF1, Saccharomyces cerevisiae, UniProt P17106, residues 1-351)
UniProt P17106, sequence (whole entry, looked up): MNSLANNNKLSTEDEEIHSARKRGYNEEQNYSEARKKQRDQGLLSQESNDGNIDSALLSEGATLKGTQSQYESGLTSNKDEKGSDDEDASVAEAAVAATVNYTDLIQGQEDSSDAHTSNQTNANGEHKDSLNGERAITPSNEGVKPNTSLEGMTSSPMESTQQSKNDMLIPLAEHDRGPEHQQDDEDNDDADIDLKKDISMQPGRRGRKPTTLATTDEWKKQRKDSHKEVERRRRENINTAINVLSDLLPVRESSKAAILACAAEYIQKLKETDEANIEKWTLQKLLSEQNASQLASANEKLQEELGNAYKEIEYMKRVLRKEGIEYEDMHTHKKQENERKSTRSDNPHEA
Method: competition protein-binding microarray
Form: double-stranded DNA, one strand shown
Sample: in vitro
Concentration: 2 µM
Setting: whole 60-bp probe, lowest competitor level
With: Pho4 competitor, 0.05 µM
Direction: higher = stronger binding
Shared flanks, not repeated: … GTCTTGATTCGCTTGACGCTGCTG
| Sequence | fluorescence intensity |
| --- | --- |
| CTTCTGTAAATTTGAGGTGTGGGTGGACGCGCCCCG | 65.5 a.u. |
| TCGGTGATGGTATTGCTCGTGTTTTTGGTTTGAACA | 83.5 a.u. |
| CTTTCCCGATCTTGGCAGGTGGGTGTAGCACATTTG | 76.2 a.u. |
| AAGTTACGCGTATATCATGTGACAGTAATTACTATA | 2600 a.u. |
| GTCTTGTCTCATTGTTTTGTGGGTGTCCCCACTTCA | 76.1 a.u. |
| AAGGATAGCACTTTGATCATGCAATTATTAAGGGAC | 102 a.u. |
| GTTCAATATACATCCTACGTGCAAAACGAACAATAG | 103 a.u. |
| GTCTTGTCTCATTGCGGCGTGGGTGTCCCCACTTCA | 81.7 a.u. |
| AAAGCGGTAATTTGCTGTGTGGGTGCAGATATCTAT | 74.2 a.u. |
| TGAATGTAGGTCCATCACGGGCTGCATTTAGTACAA | 124 a.u. |
| TTGAACTCGCCGCCTCACCTGCCACTACGTCTTCCG | 52 a.u. |
| ATTGCCTTTGGTGTACTCATGACAAGGGTATATTTT | 83.7 a.u. |
| GTTATTGGGCTAGGACACGTATGCGAACTACAACCT | 69.1 a.u. |
| TAATTGATTGGTTACCACGTAAATTCTTGAGCCTTT | 62.5 a.u. |
| AAATCCGTCCTGAAACCCGTGCTAAAATCCGTTTAC | 135 a.u. |
| AGCGAGTTCACCCGTCACGTGCAAAGAGAACTCACA | 4950 a.u. |
| TAGCAGGGGGATGAACATGTGAACATGTTGCAACAA | 280 a.u. |

Repeated from above (series 1):
| Change | normalised enrichment score |
| --- | --- |
| SNARRSLNFGIST [G11I] | 0.0407 |
| SNARRSLCFGGST [N8C] | -0.381 |
| SNARRSLLFGGST [N8L] | 0.139 |
| SVARRSLNFGGST [N2V] | 0.305 |
| SNAFRSLNFGGST [R4F] | -0.338 |
| SNAPRSLNFGGST [R4P] | -0.288 |
| SNARRSLNKGGST [F9K] | 0.293 |
| SNARRCLNFGGST [S6C] | 0.00534 |
| SNARRSLSFGGST [N8S] | 0.367 |
